Measured values gathered from unrelated publications.
Each line is one published result; not all experiments were run side by side. Several values in a cell are separate wells, animals, samples, runs or records. Numbers after ± are the reported error.

| Compound | cell line | test | setting | IC50 |
| --- | --- | --- | --- | --- |
| CCCCCCCCC=CCCCCCCCC(=O)OCC1OC(n2ccc(N)nc2=O)C(F)(F)C1O (stereo not shown) | LOX | cell growth |  | 0.0077 ± 0.0028 µM |
| C=CC(=O)N1C[C@H](C)N(c2nc(OC[C@@]34CCCN3C[C@H](F)C4)nc3c(F)c(-c4ccc(F)c5sc(N)c(C#N)c45)c(C(F)(F)F)cc23)C[C@H]1C | KRAS G12C cell lines | measured: pAKT | 4 h | < 0.01 µM |
| CCCCCCCCCCOc1c(O)cc(C(=O)O[C@@H]2Cc3c(O)cc(O)cc3O[C@@H]2c2cc(O)c(O)c(O)c2)cc1O | A-431 | cell growth or viability, CCK-8 | 24 h | 100 µM |
| Cc1ccc(C(C)C)c(OCc2ccc(C(=O)N/N=C/c3cccc(O)c3O)cc2)c1 | HCC4017 | cell growth or viability, MTS | 96 h | 1.3 µM |
| Cc1cc(C)cc(/C=N/NC(=N)N/N=C/c2cc(C)cc(C)c2)c1 | IMR-90 | cell growth or viability, crystal violet | 72 h | 89.1 µM |
| CCCCCCCCCCCCCCCCC1CC(=O)NCCCN(C)CCCCN(C)CCCN1C (stereo not shown) | SK-MEL | cell growth or viability, neutral red | 48 h | 1.9 µg/mL |
| CCc1cc2c(cc1OC)C1(C)Cc3cnc(C)nc3C(C)(C)C1CC2 (stereo not shown) | TM3 | cell growth or viability, SRB | 24 h | > 100 µM |
| CC(C)c1cccc(C(C)C)c1-n1c(Cl)c(Cl)n(-c2c(C(C)C)cccc2C(C)C)c1=[Se].[Cl][Ag] | A-431 | cell growth or viability, MTT | 72 h | 1.8 µM |
| CCC(C(=O)O)C1CCC(C)C(C(C)C(O)C(C)C(=O)C(CC)C2OC3(C=CC(NCc4cn(COC(=O)C(C)(C)C)nn4)C4(CCC(C)(C5CCC(O)(CC)C(C)O5)O4)O3)C(C)CC2C)O1 (stereo not shown) | HMLER CD24high/CD44low | cell viability, CellTiter-Blue | 72 h | 10.3 ± 1 µM |
| CO[C@@H]1[C@@H](O[C@@H]2O[C@H](C)[C@@H](O[C@H]3C[C@@](C)(O)[C@@H](O)[C@H](C)O3)[C@H](N(C)C)[C@H]2O)[C@@H](CC=O)C[C@@H](C)[C@@H](O[C@H]2CC[C@H](N(C)C)[C@@H](C)O2)/C=C/C=C/C[C@@H](C)OC(=O)C[C@H]1OC(=O)c1ccc(C(C)(C)C)cc1 | HGC-27 | cell growth or viability, CCK-8 | 72 h | 7.97 µM |
| CC(=O)[O-].Nc1ccc(C([O-])=NN=Cc2ccc(OCC(=O)Nc3ccc(Cl)cc3)cc2)cc1.O.O.O.[Cu+2] | WISH | cell growth or viability, MTT | 24 h | 43.3 µg/mL |
| Cc1ccc(C(C)C)cc1.Cc1ncc(CO)c(C=NNC2=Nc3ccccc3-c3[nH]c4ccc(Br)cc4c3C2)c1O.[Cl-].[Cl][Os+] | CH1 | cell growth or viability, MTT | 96 h | 3.3 µM |
| CO[C@@H]1[C@@H](O[C@@H]2O[C@H](C)[C@@H](O[C@H]3C[C@@](C)(O)[C@@H](OC(=O)Nc4ccc(C(F)(F)F)cc4)[C@H](C)O3)[C@H](N(C)C)[C@H]2O)[C@@H](CC=O)C[C@@H](C)[C@@H](O[C@H]2CC[C@H](N(C)C)[C@@H](C)O2)/C=C/C=C/C[C@@H](C)OC(=O)C[C@H]1O | HGC-27 | cell growth or viability, CCK-8 | 72 h | 1.76 µM |
| O=C(NN1C(=O)c2ccccc2NC1c1ccc([N+](=O)[O-])o1)c1ccc([N+](=O)[O-])cc1 (stereo not shown) | HCC4017 | cell growth or viability, MTS | 96 h | > 50 µM |
| COC(=O)[C@H]1[C@H]2C[C@H]3O[C@@]4(CCN3C[C@H]2C[C@@H](OC(=O)c2cc(OC)c(OC)c(OC)c2)[C@@H]1OC)C(=O)Nc1cc(OC)c(-c2ccccc2)cc14 | CAPAN-1 | cell growth or viability, crystal violet | 72 h | 61.9 µM |
| C[C@]12CC/C(=N\OCCN3CCCC3)C=C1CCC1C2CC[C@]2(C)/C(=C/c3ccccn3)CCC12 (stereo partly shown) | G-361 | cell growth or viability, resazurin | 72 h | 8.9 µM |
| C#CCN(CC(=O)O[C@H]1[C@H](C)O[C@@H](O[C@H]2[C@H](N(C)C)[C@@H](O)[C@H](O[C@H]3[C@@H](CC=O)C[C@@H](C)[C@@H](O[C@H]4CC[C@H](N(C)C)[C@@H](C)O4)/C=C/C=C/C[C@@H](C)OC(=O)C[C@@H](O)[C@@H]3OC)O[C@@H]2C)C[C@@]1(C)O)C(=O)c1ccc(C(F)(F)F)cc1 | HGC-27 | cell viability, CCK-8 | 72 h | 0.19 ± 0.02 µM |
| COc1ccc(NC(=O)CSc2nc3c(oc4ccccc43)c(=O)n2Cc2ccco2)cc1Cl | HCC4017 | cell growth or viability, MTS | 96 h | > 50 µM |
| NS(=O)(=O)c1ccc(/N=N/c2ccc(O)nc2O)cc1 | LNCaP | cell growth | 72 h | no inhibition |
| C[C@]12CC/C(=N\O)C=C1CCC1C2CC[C@]2(C)/C(=C/c3ccccn3)CCC12 (stereo partly shown) | G-361 | cell growth or viability, resazurin | 72 h | 45.3 µM |
| N=C(N/N=C/c1ccc2ccc3cccc4ccc1c2c34)N/N=C/c1ccc2ccc3cccc4ccc1c2c34 | IMR-90 | cell growth or viability, crystal violet | 72 h | 281 µM |
| CCN(CC)CCNC(=O)c1c(C)[nH]c(/C=C2\C(=O)Nc3ccc(F)cc32)c1C | U138-MG | cell growth or viability, MTT | 72 h | 6 µM |
| COc1ncc(-c2ccc3c(Nc4cc(Oc5cc(F)cc(F)c5)cc(C(=O)O)c4)c(S(=O)(=O)NC4CC4)cnc3c2)c(OC)n1 | SNU-398 | lactate production, measured: lactate in supernatant | 6 h | 0.8 µM |
| C[O][Pt-2]1([Cl])([Cl])([O]C(=O)CCC(=O)OCCO)[NH2+]CC[N+]1(C)C | CH1 | cell growth or viability, MTT | 96 h | 2.5 µM |
| N[C@@H](CCC(=O)N[C@@H](CS[Se]Cc1ccc(-c2cc(C(F)(F)F)nn2-c2ccc(S(N)(=O)=O)cc2)cc1)C(=O)NCC(=O)O)C(=O)O | 1205 Lu melanoma cells | cell viability, MTS | 48 h | 17.2 ± 1.6 µM |
| CCC(=O)N1CCN(c2ccc(NC(=O)c3ccc([N+](=O)[O-])o3)cc2Cl)CC1 | HCC4017 | cell growth or viability, MTS | 96 h | 47 µM |
| Cc1ccc(C(C)C)cc1.O=C(N=P(c1ccccc1)(c1ccccc1)c1ccccc1)c1ccccn1.[Cl-].[Cl][Ru+] | HCC1806 | cell growth or viability, resazurin |  | 9.29 µM |
| N=C(N/N=C/c1ccc(F)cc1)N/N=C/c1ccc(F)cc1 | IMR-90 | cell growth or viability, crystal violet | 72 h | 16.3 µM |

| Compound | cell line | test | setting | IC50 |
| --- | --- | --- | --- | --- |
| CC(=O)Oc1ccc(/C=C/C(=O)Nc2nc(=O)n([C@@H]3O[C@H](C)[C@@H](OC(C)=O)[C@H]3OC(C)=O)cc2F)cc1OC(C)=O | BxPC-3 | cell viability, MTT | 72 h | 32 µM and 31.6 µM |
| CCCCC(CC)CNC(=N)NC(=N)NCCCCCCCCNC(=N)NC(=N)NCC(CC)CCCC (stereo not shown) | NCI-H1299 | cell growth or viability, SRB | 72 h | 0.8 µM |
| Cc1ncsc1-c1ccc(C(CO)NC(=O)C2CC(O)CN2C(=O)C(C(C)C)n2cc(-c3ccc(COc4c(-c5c(C)c(F)cc6[nH]ncc56)c(C5CC5)cc5c(N6CC7CC6CN7)nc(OC6CCOCC6)nc45)cc3)nn2)cc1 (stereo not shown) | COLO 320 (KRAS wild type) | cell growth, CellTiter-Glo | 144 h, 3D culture | > 10 µM |
| CCCCCCCCCCCCCCCC(=O)O[C@H]1[C@H](C)O[C@@H](O[C@H]2[C@H](N(C)C)[C@@H](O)[C@H](O[C@H]3[C@@H](CC=O)C[C@@H](C)[C@@H](O[C@H]4CC[C@H](N(C)C)[C@@H](C)O4)/C=C/C=C/C[C@@H](C)OC(=O)C[C@@H](O)[C@@H]3OC)O[C@@H]2C)C[C@@]1(C)O | HGC-27 | cell growth or viability, CCK-8 | 72 h | 4.2 µM |
| COc1cc(NC(=O)c2cccc(F)c2)ccc1C(=O)Nc1ccc(Cl)c(-c2ncc(-c3ccccc3)[nH]2)c1 | NIH3T3-Gli-Luc | Hedgehog signalling, Gli-luciferase reporter | with: Shh-conditioned medium | 0.31 ± 0.09 µM |
| Cc1cc(C(=O)CN2C(=O)CCC2=O)c(C)n1Cc1ccccc1 | CHO CRE-bla parental |  | counterscreen | inactive |
| O=C(Cc1ccc2ccccc2c1)N[C@H](Cc1ccccc1)C(=O)N[C@H](Cc1ccc(O)cc1)C(=O)N[C@H](Cc1ccccc1)C(=O)N[C@H](Cc1ccc(OP(=O)(O)O)cc1)C(=O)O | HS5 | cell growth or viability, MTT |  | 310 µg/mL |
| Cn1cc(-c2cc(N3CCCCS3(=O)=O)ccc2N[C@H]2CC[C@@](C)(O)CC2)c2cc[nH]c2c1=O | Light II cells | GLI reporter gene, inhibitor | Hedgehog pathway | 0.00147 ± 0.00066 µM |
| Cc1cc(Cl)cc(-c2ccnc3cc(CN4C(=O)C5C(C4=O)C5(C)C)sc23)c1C[C@@H]1CNCCO1 (stereo partly shown) | CAPAN-1 | cell growth or viability, SRB | 5 days | 0.17 µM |
| CC1(C)CCC(CN2CCN(c3ccc(C(=O)NS(=O)(=O)c4ccc(NCC5COCCO5)c([N+](=O)[O-])c4)c(N4CCCOc5nc6[nH]ccc6cc54)c3)CC2)=C(c2ccc(Cl)cc2)C1 (stereo not shown) | LOUCY | cell growth or viability, ATP luminescence | 24 h | 0.0055 µM |
| Cn1cc(-c2cc(N3CCCCS3(=O)=O)ccc2N[C@H]2CC[C@H](C)CC2)c2cc[nH]c2c1=O (stereo in doubt) | Light II cells | GLI reporter gene, inhibitor | Hedgehog pathway | 0.00033 ± 0.00013 µM |
| C[N+]1(C)CC[NH2+][Pt-2]1([OH])([Cl])([Cl])[O]C(=O)CCC(=O)OCCOC(=O)CCC(=O)[O][Pt-2]1([OH])([Cl])([Cl])[NH2+]CC[N+]1(C)C | CH1 | cell growth or viability, MTT | 96 h | 6.2 µM |
| CC1=C/C(=N\N=C(/S)Nc2cccnc2)CC(C)(C)C1 | LDR | cell viability, MTS | 4 days | 2.5 µM |
| COc1c(C)c(O)c(C(=O)C=Cc2ccccc2)c(OC)c1C | KKU-M213 | cell growth or viability, SRB | 72 h | 23.9 µM |
| CC(C)(C)c1nc(-c2cccc(NS(=O)(=O)c3c(F)cccc3F)c2F)c(-c2ccnc(N)n2)s1.Cc1[nH]c2ccccc2c1CCNCc1ccc(/C=C/C(=O)NO)cc1 | SK-MEL-28 | cell growth or viability, crystal violet |  | 0.0219 µM |
| Cl.[Cl][Ru-]1[S+]=C(N2CCCC2)N[N+]1=Cc1ccc(N(c2ccc(-c3ccsc3)cc2)c2ccc(-c3ccsc3)cc2)cc1.c1ccccc1 | IMR-90 | cell viability, MTT | 24 h | > 100 µM |
| CCCCNC(=O)O[C@H]1[C@H](C)O[C@@H](O[C@H]2[C@H](N(C)C)[C@@H](O)[C@H](O[C@H]3[C@@H](CC=O)C[C@@H](C)[C@@H](O[C@H]4CC[C@H](N(C)C)[C@@H](C)O4)/C=C/C=C/C[C@@H](C)OC(=O)C[C@@H](O)[C@@H]3OC)O[C@@H]2C)C[C@@]1(C)O | HGC-27 | cell growth or viability, CCK-8 | 72 h | > 50 µM |
| CC(C)(C)C(=O)Nc1ccc2[nH]c(CN3CCC(N(CCCN4CCOCC4)CC4OC(n5cnc6c(N)ncnc65)C(O)C4O)CC3)nc2c1 (stereo not shown) | H460 R231Q | cell proliferation, CCK-8 | 72 h | 6.18 ± 0.55 µM |
| N=C(N)NCCC[C@H](N)C(=O)N1CCC[C@H]1C(=O)N[C@H](CC(=O)N[C@@H](Cc1ccc(O)cc1)C(=O)O)c1cccc2ccccc12 | BT-474 (HER2-overexpressing) |  |  | > 50 µM |
| CC(C)=CCC1=C([O-])C(=O)c2ccccc2C1=O.O=[N+]([O-])[O-].[Cu+2].c1ccc(-c2cccc(-c3ccccn3)n2)nc1 | A2780 | cell viability, MTT | 24 h | 7.1 ± 0.6 µM |
| CCC(C(=O)O)C1CCC(C)C(C(C)C(O)C(C)C(=O)C(CC)C2OC3(C=CC(NCc4cn(Cc5ccccc5)nn4)C4(CCC(C)(C5CCC(O)(CC)C(C)O5)O4)O3)C(C)CC2C)O1 (stereo not shown) | HMLER CD24high/CD44low | cell viability, CellTiter-Blue | 72 h | 1.13 ± 0.3 µM |
| CCCC(=O)N1CCN(c2ccc(NC(=O)c3ccc([N+](=O)[O-])o3)cc2Cl)CC1 | HCC4017 | cell growth or viability, MTS | 96 h | 8 µM |
| C=Cc1cc2c(cc1OC)C1(C)Cc3cnc(C)nc3C(C)(C)C1CC2 (stereo not shown) | TM3 | cell growth or viability, SRB | 24 h | > 100 µM |
| O=C(CSc1cccc[n+]1[O-])c1ccccc1Br | LDR | cell viability, MTS | 4 days | 2.2 µM |
| CC(=O)Oc1ccccc1C(=O)[O][Pt]([NH2])([NH2])([Cl])([Cl])[O]C(=O)C(Cl)Cl | PSN1 3D spheroids |  |  | 3.73 ± 0.35 µM |
| CC(=O)N[C@@H](CCCNC(=N)N)C(=O)N[C@H](CC(=O)N[C@@H](Cc1ccccc1)C(N)=O)c1cccc2ccccc12 | BT-474 (HER2-overexpressing) |  |  | 6.37 ± 0.31 µM |
| Cc1ccc(/C=N/N=C(\S)Nc2cccc(S(=O)(=O)N(C)C)c2)o1 | HCC4017 | cell growth or viability, MTS | 96 h | 40 µM |
